# Measurements gathered from unrelated publications.
# Every numbered part comes from another study and shows a few of its results, in no order. Substitutions count along the parent as printed.

# Study 1 — technique: universal PBM; molecule type: double-stranded DNA, one strand shown; medium: in vitro; concentration: not given; reading: higher = stronger binding
# Target: Sal-like protein 4, full length isoform B (SALL4, Homo sapiens, UniProt Q9UJQ4-2, residues 1-616)
# Setting: 8-mer, flanks averaged, mean of replicates
Oligonucleotide,E-score
AGAAGTAA,0.275
AAAGTATT,0.306
CGCGTTGA,-0.173
ACCCCAAG,-0.219
GCCGGTAC,-0.273
CCCTACGA,-0.0578
AGCTCTCG,-0.128
CAGCGCTG,-0.0855
AGGGATTA,0.116
CCTCGCCA,-0.216
CAATTGTG,0.126
GTCTCTCA,-0.163
ACAAAGGT,0.0968
CTATCCGA,-0.0078

# Study 2 — target: CCNA1, cyclin fold, Cln2 fusion (human); technique: yeast growth competition, sequencing; medium: yeast; setting: weak parent motif; relative to: not given; reading: higher = stronger binding
# Starting sequence: CDC42EP1 docking peptide (human); SLVVGKLSFDSSP
Substitution,normalised enrichment score
SLVVGKLAFDSSP [S8A],-0.527
ALVVGKLSFDSSP [S1A],-0.168
SLAVGKLSFDSSP [V3A],-0.553
SLVVGKLSFASSP [D10A],-0.319
SLVAGKLSFDSSP [V4A],-0.213
SLVVGKASFDSSP [L7A],-0.33

# Study 3 — technique: protein binding microarray; molecule type: double-stranded DNA, one strand shown; medium: in vitro; concentration: not given; relative to: not given; reading: higher = stronger binding
# Target: Histone acetyltransferase KAT6A, winged helix 2, GST fusion (KAT6A, Homo sapiens, UniProt Q92794, residues 85-181)
# Setting: 8-mer, flanks averaged, mean of 2 arrays, mostly near background
# Construct (chain): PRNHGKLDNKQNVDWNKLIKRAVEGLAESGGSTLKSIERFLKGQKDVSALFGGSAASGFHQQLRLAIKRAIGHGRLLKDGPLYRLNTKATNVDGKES
Oligonucleotide,E-score
CAATCAAC,0.0036
GAGTATTA,-0.0937
CCGGGTAG,0.0447
CGGACAGA,0.0435
CATTTTAG,0.0835
ATGTGATA,-0.0775
GGCAAAAA,0.122
ATGGCCAA,-0.0941
AAATCTTA,-0.00189
GCAAACGC,0.139
GACTGCCC,-0.13
CCCCCAGG,0.00118
AGTTTATA,0.0126
AGCTTAAA,0.123
AAAACGCT,-0.133
CTGCGCAG,0.129
ACAAATTG,-0.0806

# Study 4 — technique: RNA Bind-n-Seq; molecule type: RNA; medium: in vitro; concentration: 1 µM; setting: whole 134-nt RNA, ends assumed; added: 150 mM KCl; relative to: input library; reading: higher = stronger binding
# Target: Ras GTPase-activating protein-binding protein 1, C-terminal RGG region (G3BP1, Homo sapiens, UniProt Q13283)
# Sequence of UniProt Q13283 (whole entry, looked up): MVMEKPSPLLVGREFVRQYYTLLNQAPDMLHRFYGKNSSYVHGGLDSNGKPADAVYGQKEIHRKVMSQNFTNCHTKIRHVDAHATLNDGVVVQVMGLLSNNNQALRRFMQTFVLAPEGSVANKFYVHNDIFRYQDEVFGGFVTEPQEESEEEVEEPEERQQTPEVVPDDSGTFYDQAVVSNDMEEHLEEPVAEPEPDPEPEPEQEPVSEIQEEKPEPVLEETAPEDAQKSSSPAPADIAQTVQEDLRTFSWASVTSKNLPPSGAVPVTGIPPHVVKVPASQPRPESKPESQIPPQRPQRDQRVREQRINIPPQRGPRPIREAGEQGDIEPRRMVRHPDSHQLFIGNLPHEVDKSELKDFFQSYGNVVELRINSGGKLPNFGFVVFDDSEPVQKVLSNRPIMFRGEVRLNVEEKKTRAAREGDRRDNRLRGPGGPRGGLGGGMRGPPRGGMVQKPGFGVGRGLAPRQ
# Constant ends, left off below: GGGAGUUCUACAGUCCGACGAUC … UGGAAUUCUCGGGUGUCAAGG
Oligonucleotide,log2 enrichment
UAACUUUAGAGGAGGAUCUGAUGGAUAUGGCAGUGGACGUGGAUUUGGGGAUGGCUAUAAUGGGUAUGGAGGAGGACCUGGAGGAGGCAA,-1.02
GUCCUGUGCUACACAUCGUAUGUACCGAAUCGGGCCCCCGGGGCCCCCGGGCCCCCGGAAAGUAUUAUGUUACGCCGUUCGGAUCUGCAC,-1.8
UGUGUCUUGCUGAAUCAGGGCUCUCUUAUCCCUGCCAUCGACUUACAGUGGGAAGAAGAUCUUCACCUGCACAGACCCGGGAACAGUCGG,-0.383
AUUCUAUAAAUGGCAAGUAAGCCUGAAGUGAGGAUACUGCAAUUUUCGGAGAAAAGAACAGCAGCUCUUUAAGUGUUUGCAUUUUCUAUU,-1.98
CCUGUGCUACACAUCGUAUGUACCGAAUCGGGGUUUUUUUGGGGUUUUUGGGGAAAGGGGAAAGUAUUAUGUUACGCCGUUCGGAUCUGC,0.135
CCUGUGCUACACAUCGUAUGUACCGAAUCGGGGUGGGGUUUUUUUGGGGUUUUUUUGGGGAAAGUAUUAUGUUACGCCGUUCGGAUCUGC,0.00146
GCAGGAAGUAUAAACAAAUGGAAAUGCUUCGGAUAGUGGCAGGGGUGGGGGUUGCUAAGGAAAGGGUGGGAUGGGAGUGGGUAAAGAGUU,1.07
GUCCUGUGCUACACAUCGUAUGUACCGAAUCGGGAAAAAAGGAAAAAAGGGAAAAAAGGAAAGUAUUAUGUUACGCCGUUCGGAUCUGCA,-1.72
UACUAUCAAACAAUCGGAAACCACGCGUCCUACUACAAAGAUGCUCUGCGGUUUUUGGGCUGUGUUGACAUCAAGGAUCUACCAGGUAAC,-1.1

# Mixed results
Substance,target,assay,system,setting,scale,endpoint,value
"PhoQ, residues 284 288 289 292 302 303 TTCLQL","PhoP, residues 12 14 15 18 19 NQFFI (Escherichia coli, UniProt P23836)","Sort-seq, refers to: YFP reporter",E. coli,"PhoQ-PhoP variant library, added: 10 µM Mg2+","relative to: high Mg2+ state, higher = stronger signaling",fold induction,6.83

# A few entries again (study 1):
Oligonucleotide,E-score
AGCTCTCG,-0.128
CAGCGCTG,-0.0855
AGGGATTA,0.116
CCTCGCCA,-0.216
CAATTGTG,0.126
GTCTCTCA,-0.163
